Published values collected from several papers.
Each numbered part is a random draw from the data of one study; scales do not carry over between parts.
UniProt P17948, sequence (whole entry, looked up): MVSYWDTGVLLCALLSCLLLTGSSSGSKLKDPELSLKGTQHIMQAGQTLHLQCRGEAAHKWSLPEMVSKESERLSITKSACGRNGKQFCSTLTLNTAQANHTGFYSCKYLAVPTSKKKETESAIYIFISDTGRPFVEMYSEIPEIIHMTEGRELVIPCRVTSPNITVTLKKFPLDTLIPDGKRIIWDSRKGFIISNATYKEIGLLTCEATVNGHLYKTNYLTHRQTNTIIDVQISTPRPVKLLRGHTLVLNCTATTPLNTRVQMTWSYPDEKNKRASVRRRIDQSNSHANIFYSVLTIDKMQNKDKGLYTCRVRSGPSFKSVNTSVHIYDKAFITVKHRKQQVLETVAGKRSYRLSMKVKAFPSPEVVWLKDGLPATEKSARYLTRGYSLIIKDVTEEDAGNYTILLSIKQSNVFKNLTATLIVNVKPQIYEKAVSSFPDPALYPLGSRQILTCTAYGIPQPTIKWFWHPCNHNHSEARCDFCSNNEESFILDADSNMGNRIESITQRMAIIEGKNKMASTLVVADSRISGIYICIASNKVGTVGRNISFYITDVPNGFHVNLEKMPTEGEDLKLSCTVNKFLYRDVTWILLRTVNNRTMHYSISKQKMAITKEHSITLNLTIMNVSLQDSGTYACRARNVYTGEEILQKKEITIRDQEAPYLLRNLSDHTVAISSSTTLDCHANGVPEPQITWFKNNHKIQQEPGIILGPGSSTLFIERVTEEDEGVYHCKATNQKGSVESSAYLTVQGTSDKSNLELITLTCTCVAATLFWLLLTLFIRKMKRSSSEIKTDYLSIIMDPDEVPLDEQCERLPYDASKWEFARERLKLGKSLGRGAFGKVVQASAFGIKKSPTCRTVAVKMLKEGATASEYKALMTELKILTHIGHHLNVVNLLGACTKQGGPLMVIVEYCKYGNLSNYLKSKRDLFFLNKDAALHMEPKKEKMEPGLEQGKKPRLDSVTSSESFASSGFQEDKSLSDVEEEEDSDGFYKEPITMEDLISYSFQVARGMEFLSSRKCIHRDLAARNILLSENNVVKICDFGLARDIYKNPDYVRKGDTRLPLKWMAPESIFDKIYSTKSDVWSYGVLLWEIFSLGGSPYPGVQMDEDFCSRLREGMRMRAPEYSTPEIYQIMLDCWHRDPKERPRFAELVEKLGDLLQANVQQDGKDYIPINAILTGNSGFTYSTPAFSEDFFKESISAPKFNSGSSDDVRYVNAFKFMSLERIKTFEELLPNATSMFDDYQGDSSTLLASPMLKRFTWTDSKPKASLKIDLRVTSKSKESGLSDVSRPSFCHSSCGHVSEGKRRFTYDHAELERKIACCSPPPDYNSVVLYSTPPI
UniProt P51812, sequence (whole entry, looked up): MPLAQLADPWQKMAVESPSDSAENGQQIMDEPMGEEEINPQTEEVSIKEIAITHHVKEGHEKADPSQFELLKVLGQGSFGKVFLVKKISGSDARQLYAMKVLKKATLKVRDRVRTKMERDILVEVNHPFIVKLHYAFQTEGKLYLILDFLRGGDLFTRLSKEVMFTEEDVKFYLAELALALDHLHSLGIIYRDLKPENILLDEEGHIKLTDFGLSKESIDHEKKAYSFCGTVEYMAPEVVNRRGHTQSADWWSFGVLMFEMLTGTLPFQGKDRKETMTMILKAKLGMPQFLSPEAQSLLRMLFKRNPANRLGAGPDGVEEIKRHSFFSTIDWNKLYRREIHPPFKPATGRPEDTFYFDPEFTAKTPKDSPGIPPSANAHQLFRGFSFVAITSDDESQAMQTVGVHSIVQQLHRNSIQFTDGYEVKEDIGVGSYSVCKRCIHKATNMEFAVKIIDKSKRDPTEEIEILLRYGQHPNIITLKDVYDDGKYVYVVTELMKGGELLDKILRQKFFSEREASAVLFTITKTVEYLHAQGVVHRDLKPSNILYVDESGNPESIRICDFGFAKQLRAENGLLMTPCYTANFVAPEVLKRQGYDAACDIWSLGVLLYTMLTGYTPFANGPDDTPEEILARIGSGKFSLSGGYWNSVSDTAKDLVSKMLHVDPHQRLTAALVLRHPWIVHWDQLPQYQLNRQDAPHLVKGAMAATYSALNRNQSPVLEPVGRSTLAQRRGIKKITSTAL
UniProt P51957, sequence (whole entry, looked up): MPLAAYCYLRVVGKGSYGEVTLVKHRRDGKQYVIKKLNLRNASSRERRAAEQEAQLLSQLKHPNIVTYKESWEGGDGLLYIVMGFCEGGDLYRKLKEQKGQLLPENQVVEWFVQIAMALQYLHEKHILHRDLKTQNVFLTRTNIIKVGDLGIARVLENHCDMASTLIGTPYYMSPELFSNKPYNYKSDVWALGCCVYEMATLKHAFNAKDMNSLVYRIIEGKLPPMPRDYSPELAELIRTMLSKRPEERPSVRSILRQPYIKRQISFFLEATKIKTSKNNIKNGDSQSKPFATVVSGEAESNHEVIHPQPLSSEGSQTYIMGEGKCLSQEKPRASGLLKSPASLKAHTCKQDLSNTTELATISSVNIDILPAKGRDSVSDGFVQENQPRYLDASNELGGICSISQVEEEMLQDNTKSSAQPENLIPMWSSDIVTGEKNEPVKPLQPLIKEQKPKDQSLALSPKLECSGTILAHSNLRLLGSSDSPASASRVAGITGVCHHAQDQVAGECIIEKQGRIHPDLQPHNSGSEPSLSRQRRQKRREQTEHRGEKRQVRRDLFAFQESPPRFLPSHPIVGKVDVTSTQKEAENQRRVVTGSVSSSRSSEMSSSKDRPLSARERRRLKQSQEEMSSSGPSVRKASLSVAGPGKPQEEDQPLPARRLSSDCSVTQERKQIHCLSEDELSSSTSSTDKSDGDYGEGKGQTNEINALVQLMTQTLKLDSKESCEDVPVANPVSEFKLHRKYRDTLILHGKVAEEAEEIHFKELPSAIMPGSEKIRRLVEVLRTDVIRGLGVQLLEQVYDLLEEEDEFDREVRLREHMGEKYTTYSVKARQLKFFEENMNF
UniProt Q05513, sequence (whole entry, looked up): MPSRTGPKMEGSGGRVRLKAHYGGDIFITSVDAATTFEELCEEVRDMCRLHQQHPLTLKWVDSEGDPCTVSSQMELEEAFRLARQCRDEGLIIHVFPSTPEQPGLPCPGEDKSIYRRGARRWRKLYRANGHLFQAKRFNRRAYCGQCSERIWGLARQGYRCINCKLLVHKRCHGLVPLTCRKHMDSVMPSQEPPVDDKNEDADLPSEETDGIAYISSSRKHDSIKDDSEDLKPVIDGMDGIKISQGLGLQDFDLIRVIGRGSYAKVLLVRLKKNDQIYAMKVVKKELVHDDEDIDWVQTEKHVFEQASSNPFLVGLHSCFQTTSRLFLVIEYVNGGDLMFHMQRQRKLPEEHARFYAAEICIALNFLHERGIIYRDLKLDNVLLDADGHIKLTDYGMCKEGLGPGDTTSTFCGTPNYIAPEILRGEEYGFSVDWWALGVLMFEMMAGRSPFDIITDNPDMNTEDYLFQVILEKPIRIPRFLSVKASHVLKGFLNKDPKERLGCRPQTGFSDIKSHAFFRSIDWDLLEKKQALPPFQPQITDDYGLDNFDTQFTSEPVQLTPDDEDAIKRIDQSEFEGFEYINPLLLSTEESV
UniProt Q9UQ88, sequence (whole entry, looked up): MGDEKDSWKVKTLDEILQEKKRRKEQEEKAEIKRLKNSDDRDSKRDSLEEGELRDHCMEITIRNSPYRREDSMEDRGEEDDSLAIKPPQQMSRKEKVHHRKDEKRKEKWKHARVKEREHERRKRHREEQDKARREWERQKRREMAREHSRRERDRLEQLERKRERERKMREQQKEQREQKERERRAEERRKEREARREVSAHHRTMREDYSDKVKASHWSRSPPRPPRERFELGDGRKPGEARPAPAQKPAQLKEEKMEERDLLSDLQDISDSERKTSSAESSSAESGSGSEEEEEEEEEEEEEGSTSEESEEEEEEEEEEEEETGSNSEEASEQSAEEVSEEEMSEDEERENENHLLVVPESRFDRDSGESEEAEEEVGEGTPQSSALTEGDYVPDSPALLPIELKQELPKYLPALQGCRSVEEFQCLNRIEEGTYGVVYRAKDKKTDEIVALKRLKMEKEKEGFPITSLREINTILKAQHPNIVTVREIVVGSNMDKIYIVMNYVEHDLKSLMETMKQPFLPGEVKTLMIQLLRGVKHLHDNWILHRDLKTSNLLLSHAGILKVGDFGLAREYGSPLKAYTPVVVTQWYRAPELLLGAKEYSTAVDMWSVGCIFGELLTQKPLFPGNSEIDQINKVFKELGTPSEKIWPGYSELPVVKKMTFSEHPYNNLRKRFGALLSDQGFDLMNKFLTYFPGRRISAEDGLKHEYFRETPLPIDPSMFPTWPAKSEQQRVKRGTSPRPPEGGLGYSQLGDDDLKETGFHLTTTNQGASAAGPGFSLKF
UniProt Q9UBE8, sequence (whole entry, looked up): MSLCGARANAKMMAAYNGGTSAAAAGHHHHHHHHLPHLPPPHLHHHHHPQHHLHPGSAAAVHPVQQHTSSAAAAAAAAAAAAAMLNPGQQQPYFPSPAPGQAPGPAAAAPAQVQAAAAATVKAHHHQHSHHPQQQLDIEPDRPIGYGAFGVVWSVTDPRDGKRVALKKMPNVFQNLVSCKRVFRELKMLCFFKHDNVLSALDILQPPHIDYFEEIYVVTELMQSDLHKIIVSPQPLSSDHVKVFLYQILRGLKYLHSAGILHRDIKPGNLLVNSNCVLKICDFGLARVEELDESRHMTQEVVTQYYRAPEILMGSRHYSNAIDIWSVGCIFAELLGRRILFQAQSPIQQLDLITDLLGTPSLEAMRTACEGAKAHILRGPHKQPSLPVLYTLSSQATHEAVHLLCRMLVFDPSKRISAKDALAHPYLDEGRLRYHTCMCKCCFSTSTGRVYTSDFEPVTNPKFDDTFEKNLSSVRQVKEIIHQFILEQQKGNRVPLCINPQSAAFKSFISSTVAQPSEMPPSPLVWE

Set 1
Compound: CCc1ccccc1C(=O)Nc1n[nH]c2c(C)c(F)c(C3C(C#N)=C(C)N(C)C(C)=C3C#N)cc12
Technique: competition with immobilised ligand
Concentration: 1 µM
target	test	remaining binding [%]
Cyclin-dependent kinase 11A (CDK11A, Homo sapiens, UniProt Q9UQ88)	binding	86
Serine/threonine-protein kinase TNNI3K (TNNI3K, Homo sapiens, UniProt Q59H18)	cell-free assay	87
Serine/threonine-protein kinase NLK (NLK, Homo sapiens, UniProt Q9UBE8)	binding	100
Cyclin-dependent kinase 4, with cyclin D3 (CDK4, Homo sapiens, UniProt P11802)	cell-free assay	75
Receptor-type tyrosine-protein kinase FLT3 (FLT3, Homo sapiens, UniProt P36888, D835V)	cell-free assay	3.2
Serine/threonine-protein kinase VRK2 (VRK2, Homo sapiens, UniProt Q86Y07)	cell-free assay	100
Cyclin-dependent kinase-like 2 (CDKL2, Homo sapiens, UniProt Q92772)	binding	94
Phosphatidylinositol 3-kinase catalytic subunit type 3 (PIK3C3, Homo sapiens, UniProt Q8NEB9)	cell-free assay	100
Vascular endothelial growth factor receptor 1 (FLT1, Homo sapiens, UniProt P17948)	cell-free assay	72
Serine/threonine-protein kinase RIO3 (RIOK3, Homo sapiens, UniProt O14730)	cell-free assay	45
Receptor tyrosine-protein kinase erbB-4 (ERBB4, Homo sapiens, UniProt Q15303)	cell-free assay	84
Serine/threonine-protein kinase Nek4 (NEK4, Homo sapiens, UniProt P51957)	cell-free assay	100
Cyclin-dependent kinase 14 (CDK14, Homo sapiens, UniProt O94921)	cell-free assay	83

Set 2
Organism: Sarcocystis neurona
Effect on: parasite growth
Concentration: 10 µM
Time: 96 h
Setting: second screen
Baseline: untreated
SMILES	log2 fold change
Cc1cccc(Nc2ccncc2S(=O)(=O)NC(=O)NC(C)C)c1	0.18
OCCN(CCO)c1nc(N2CCCCC2)c2nc(N(CCO)CCO)nc(N3CCCCC3)c2n1	0.6
Cc1nccn1CC1CCc2c(c3ccccc3n2C)C1=O (centres unmarked)	0.44
O=C(O)c1cc(/N=N/c2ccc(S(=O)(=O)Nc3ccccn3)cc2)ccc1O	0.37
N[C@@H](C(=O)N[C@@H]1C(=O)N2C(C(=O)O)=C(Cl)CS[C@H]12)c1ccccc1	0.53
CC1(C)S[C@@H]2[C@H](/N=C/N3CCCCCC3)C(=O)N2[C@H]1C(=O)O	0.3
CC[C@@]1(O)C(=O)OCc2c1cc1n(c2=O)Cc2cc3c(CN(C)C)c(O)ccc3nc2-1	0.47
CCOC(=O)[C@H](CCc1ccccc1)N[C@@H](C)C(=O)N1Cc2ccccc2C[C@H]1C(=O)O	0.45
COc1ccc2c3c1O[C@H]1C[C@@H](O)C=C[C@@]31CCN(C)C2	0.41
CC(C)(C)NC(=O)[C@@H]1C[C@@H]2CCCC[C@@H]2CN1C[C@@H](O)[C@H](Cc1ccccc1)NC(=O)[C@H](CC(N)=O)NC(=O)c1ccc2ccccc2n1	-0.18
O=[N+]([O-])c1cccc2cn[nH]c12	0.16
CC(=O)OCC(CCn1cnc2cnc(N)nc21)COC(C)=O	0.35
CC1(C)O[C@@H]2C[C@H]3[C@@H]4CCC5=CC(=O)C=C[C@]5(C)[C@@]4(F)[C@@H](O)C[C@]3(C)[C@]2(C(=O)CO)O1	0.65

Set 3
SMILES: CC(C)N(CCC(=O)c1ccc2ccccc2c1)Cc1ccccc1
Effect on: enzyme activity
Mode: inhibitor
Concentration: 0.5 µM
Baseline: control
target	remaining activity [%]
Cyclin-dependent kinase 2, with cyclin E (CDK2, Homo sapiens, UniProt P24941)	89.2
Tyrosine-protein kinase receptor TYRO3 (TYRO3, Homo sapiens, UniProt Q06418)	98.9
Ephrin type-A receptor 6 (EPHA6, Homo sapiens, UniProt Q9UF33)	93.3
Ribosomal protein S6 kinase alpha-3 (RPS6KA3, Homo sapiens, UniProt P51812)	95.1
Calcium/calmodulin-dependent protein kinase type 1 (CAMK1, Homo sapiens, UniProt Q14012)	104
Tyrosine-protein kinase Tec (TEC, Homo sapiens, UniProt P42680)	115
Mitogen-activated protein kinase kinase kinase 20 (MAP3K20, Homo sapiens, UniProt Q9NYL2)	90.5
SRSF protein kinase 1 (SRPK1, Homo sapiens, UniProt Q96SB4)	103
Protein kinase C theta type (PRKCQ, Homo sapiens, UniProt Q04759)	122
Serine/threonine-protein kinase PAK 6 (PAK6, Homo sapiens, UniProt Q9NQU5)	116
Casein kinase I isoform delta (CSNK1D, Homo sapiens, UniProt P48730)	97.6
Dual specificity protein kinase CLK2 (CLK2, Homo sapiens, UniProt P49760)	96.3
Vascular endothelial growth factor receptor 1 (FLT1, Homo sapiens, UniProt P17948)	86
Calcium/calmodulin-dependent protein kinase kinase 1 (CAMKK1, Homo sapiens, UniProt Q8N5S9)	104
Serine/threonine-protein kinase Sgk2 (SGK2, Homo sapiens, UniProt Q9HBY8)	101
Protein kinase C zeta type (PRKCZ, Homo sapiens, UniProt Q05513)	100
Dual specificity protein kinase CLK1 (CLK1, Homo sapiens, UniProt P49759)	109
Casein kinase I isoform epsilon (CSNK1E, Homo sapiens, UniProt P49674)	96.1
Insulin-like growth factor 1 receptor (IGF1R, Homo sapiens, UniProt P08069)	107
Tyrosine-protein kinase JAK1 (JAK1, Homo sapiens, UniProt P23458)	112

Mixed results
SMILES	target	test	setting	endpoint	value
C=CCc1ccc(O)c(-c2ccc(O)c(CC=C)c2)c1	Anoctamin-1 (ANO1, Homo sapiens, UniProt Q5XXA6, del476-501)	chloride current, inhibitor, whole-cell voltage clamp	wild type at 100 mV, together with: 300 nM Ca2+	Hill slope	1.14
